Assay results gathered from unrelated publications.
Parts stem from different laboratories: compare values within a part only. Substitutions count along the parent as printed.

Set 1 — target: inorganic phosphate, free oxyanion; method: microfluidic competitive inhibition; matrix: in vitro, cell-free expressed; tested at: not given; direction: lower = stronger binding
Notes: derived from inhibition constants, unchanged parent 615000 nM
Starting sequence: PafA, mature enzyme, eGFP fusion (Elizabethkingia meningoseptica, UniProt Q9KJX5); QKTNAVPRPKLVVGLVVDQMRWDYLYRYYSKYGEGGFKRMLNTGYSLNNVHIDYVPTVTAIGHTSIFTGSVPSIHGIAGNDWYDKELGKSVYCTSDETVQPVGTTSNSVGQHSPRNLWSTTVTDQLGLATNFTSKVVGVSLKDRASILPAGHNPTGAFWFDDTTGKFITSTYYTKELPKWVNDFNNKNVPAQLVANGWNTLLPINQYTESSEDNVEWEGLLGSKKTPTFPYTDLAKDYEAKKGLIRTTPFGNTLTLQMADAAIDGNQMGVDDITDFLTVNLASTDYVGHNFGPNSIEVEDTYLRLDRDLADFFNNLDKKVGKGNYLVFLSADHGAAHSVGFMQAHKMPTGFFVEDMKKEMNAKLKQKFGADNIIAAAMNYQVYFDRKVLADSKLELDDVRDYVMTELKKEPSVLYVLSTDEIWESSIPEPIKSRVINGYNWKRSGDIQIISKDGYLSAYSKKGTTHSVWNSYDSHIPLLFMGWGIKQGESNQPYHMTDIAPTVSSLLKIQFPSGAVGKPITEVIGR
| Change | phosphate dissociation constant [µM] |
| --- | --- |
| A310G | 548 |
| T163G | 428 |
| T164G | 451 |
| G103V | 571 |
| I524V | 594 |
| T405V | 631 |
| Y45G | 509 |
| T278G | 490 |
| A376V | 581 |
| L394V | 637 |
| G463A | 305 |
| F341V | 510 |
| D332G | 23.1 |
| V55A | 550 |

Set 2 — method: RNAcompete; form: RNA; matrix: in vitro; tested at: 20 nM; notes: 7-mer, probes averaged, single round; baseline: mean of 7-mers; direction: higher = stronger binding
Target: PABPC1L2, full length, GST fusion (mouse, UniProt A0ABA7IW68)
Target sequence (chain): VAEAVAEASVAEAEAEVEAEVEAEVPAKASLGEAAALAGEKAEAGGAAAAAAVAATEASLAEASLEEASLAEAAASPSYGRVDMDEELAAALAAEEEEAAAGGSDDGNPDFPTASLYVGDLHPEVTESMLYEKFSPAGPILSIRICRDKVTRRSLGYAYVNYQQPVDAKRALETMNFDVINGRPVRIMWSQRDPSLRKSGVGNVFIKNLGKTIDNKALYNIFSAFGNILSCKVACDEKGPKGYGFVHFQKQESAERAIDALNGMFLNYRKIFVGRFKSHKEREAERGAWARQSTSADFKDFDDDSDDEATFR
| Sequence | 7-mer Z-score |
| --- | --- |
| GACUUAG | -0.164 |
| AGUUAUA | -0.0536 |
| AUGGUAU | -0.0573 |
| CGUUUUU | -0.416 |
| GUAUCGU | -0.32 |
| CCAAUUG | -0.358 |
| AUAUUAA | 0.0352 |
| UGUCCAG | -0.316 |

Set 3 — target: CCNE1, cyclin fold, Cln2 fusion (human); method: yeast growth competition, sequencing; matrix: yeast; notes: strong parent motif; baseline: not given; direction: higher = stronger binding; starting sequence: viral docking peptide; TSVRRALFTGGSD
| Change | normalised enrichment score |
| --- | --- |
| G11M | 5.04 |
| V3C | 4.29 |
| F8G | -0.00362 |
| T9V | 5.78 |
| S12N | 5.79 |
| A6K | 7.03 |
| G10K | 4.33 |
| R5K F8L | 0.257 |
| F8L | 0.704 |
| R4W | 0.832 |
| T9G | 5.07 |
| S12Y | 5.47 |
| R4S | 2.78 |
| F8Q | 0.154 |

Set 4 — method: RNA Bind-n-Seq; form: RNA; matrix: in vitro; tested at: 365 nM; baseline: no-protein control; direction: higher = stronger binding
Target: RNA binding protein fox-1 homolog 2, RRM domain, GST-SBP tag (RBFOX2, Homo sapiens, UniProt O43251-10, residues 100-194)
Notes: natural RNA segment, single round, ends assumed
Shared flanks, not repeated: GGGAGUUCUACAGUCCGACGAUC … UGGAAUUCUCGGGUGCCAA
Construct (chain): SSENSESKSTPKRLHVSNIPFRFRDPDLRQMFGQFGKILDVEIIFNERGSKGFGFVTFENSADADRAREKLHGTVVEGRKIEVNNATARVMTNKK
| Sequence | RBNS enrichment (R) |
| --- | --- |
| UCAUGGAGUGAUUAUGUUGAUAAUAAUGUGUAAUGCGCGUUCUUUUCACUGGUUUAUCUACAGAAAUUUCUCUGGGCCUUUUUUUCUGUGUUUGAUUCAACACUGCACUA | 0.445 |
| UCUUCACCUUGGUUUAUGAGAACUGGUUCUUGCCUUCCCCUUGAACCUCAUUAAAUGGUGAUUUCUUGCUAAGCUCCAGCCCGAGUGGUCUCCUCUCAGCUUCUAAUUUU | 0.628 |
| AUUUGGGCUUUAACACACUGGGUACUUUGUGGGUCUCUCUUUCGUCGGUGGCUUAAAGUAACAUCUAUUUCCAUUGAUCCUAGGUUCUUCCUGACUGCUUUCUCCAACUG | 0.351 |
| CUCACCCCUCGGUGCCUGGGCCCAGCCCCGUGCCCCUCCGUCUGCCUCCGCACGGCUGGCAGAGGGCAGGCUGCAUGCAGUGGCGGCUACUGGGCCCUGCCCAGCCCCGG | 1.47 |
| GAAGAGUACUCAGCAGCCACUGCCCUCAUCAGGAACCUCCUCGGCAUCCAUCAGUCUCCUCACUGCUCCUGUGCGCAGGGCUGUCCCUCCCACACUCCCUUCCAGGCCGU | 0.471 |
| GGUGUCUCUGUCUGAGUUAGCUGCUGGGUGGAGCCUCACAUGUUCCUAUCUGUUACCAUAACAGAGUAGCAUUAAUAGUGUUAAGGAUUGGUGCUAGCCCAUGGGAUCGA | 0.346 |
| CUCCUUGGCCAUUCAUUUUCCUCCAGCCCAUAGCUCUGCCCACUCCAGUGUCAAACACCGCCCAGGCUUUCCAGCUGACCUCUGUUAUCUUGAGAGCUGAGGCUAGGUCC | 0.514 |
| UGGAGAGGGCCAGUGCUGCCACUGGUGUGGGGGUCAUUCUUGUGCACCCCCUACUGUGUGCUCCUCUUGUGCACCUACUGUGUGCUUCUUCCGGGGCUUGUUGCCAUUCC | 0.438 |

A few entries again (set 4):
| Sequence | RBNS enrichment (R) |
| --- | --- |
| UCAUGGAGUGAUUAUGUUGAUAAUAAUGUGUAAUGCGCGUUCUUUUCACUGGUUUAUCUACAGAAAUUUCUCUGGGCCUUUUUUUCUGUGUUUGAUUCAACACUGCACUA | 0.445 |
| UCUUCACCUUGGUUUAUGAGAACUGGUUCUUGCCUUCCCCUUGAACCUCAUUAAAUGGUGAUUUCUUGCUAAGCUCCAGCCCGAGUGGUCUCCUCUCAGCUUCUAAUUUU | 0.628 |
| AUUUGGGCUUUAACACACUGGGUACUUUGUGGGUCUCUCUUUCGUCGGUGGCUUAAAGUAACAUCUAUUUCCAUUGAUCCUAGGUUCUUCCUGACUGCUUUCUCCAACUG | 0.351 |
| CUCACCCCUCGGUGCCUGGGCCCAGCCCCGUGCCCCUCCGUCUGCCUCCGCACGGCUGGCAGAGGGCAGGCUGCAUGCAGUGGCGGCUACUGGGCCCUGCCCAGCCCCGG | 1.47 |
| GAAGAGUACUCAGCAGCCACUGCCCUCAUCAGGAACCUCCUCGGCAUCCAUCAGUCUCCUCACUGCUCCUGUGCGCAGGGCUGUCCCUCCCACACUCCCUUCCAGGCCGU | 0.471 |
| GGUGUCUCUGUCUGAGUUAGCUGCUGGGUGGAGCCUCACAUGUUCCUAUCUGUUACCAUAACAGAGUAGCAUUAAUAGUGUUAAGGAUUGGUGCUAGCCCAUGGGAUCGA | 0.346 |
| CUCCUUGGCCAUUCAUUUUCCUCCAGCCCAUAGCUCUGCCCACUCCAGUGUCAAACACCGCCCAGGCUUUCCAGCUGACCUCUGUUAUCUUGAGAGCUGAGGCUAGGUCC | 0.514 |
